# Measurements collected from several papers.
# Each line is one published result; not all experiments were run side by side. ± gives the spread as reported.
SMILES,assay,system,conditions,tissue uptake
O=C(NCC1OC2CCC=CCCC2O1)c1ccc(COCCOCCOCC[18F])cc1 (stereo not drawn),,"female BALB/c nude mice, liver","intravenous, 60 min",3.9 ± 0.9 %ID/g
CCCC[C@H](NC(=O)CNC(=O)CNC(=O)CN1CCN(CC(=O)O)CCN(CC(=O)O)CCN(CC(=O)O)CC1)C(=O)N[C@H]1CC(=O)NCCCC[C@@H](C(N)=O)NC(=O)[C@H](Cc2c[nH]c3ccccc23)NC(=O)[C@H](CCCNC(=N)N)NC(=O)[C@@H](Cc2ccccc2)NC(=O)[C@H](Cc2c[nH]cn2)NC1=O [gallium-67 labelled],,"female C57 mice, B16/F1 melanoma, lung","intravenous, 0.037 MBq, 2 h",0.4 ± 0.15 %ID/g
CC(C)[C@H](NC(=O)[C@@H]1CCCN1C(=O)[C@H](CCCNC(=N)N)NC(=O)[C@H](CS)NC(=O)[C@H](Cc1c[nH]c2ccccc12)NC(=O)[C@H](CCCNC(=N)N)NC(=O)[C@@H](Cc1ccccc1)NC(=O)[C@H](Cc1c[nH]cn1)NC(=O)[C@H](CCC(=O)O)NC(=O)[C@H](CS)NC(=O)[C@H](CS)NC(=O)CNC(=O)[C@@H]1CC(=O)N[C@@H](CCCNC(=N)N)C(=O)NCC(=O)N[C@@H](CC(=O)O)C(=O)N[C@H](Cc2ccc(O)cc2)C(=O)N1)C(N)=O [technetium-99m labelled],,"C57 mice B16/F1 melanoma female, liver","iv, 2 h, together with: NDP-MSH 10 µg co-injected",2.55 ± 1.38 %ID/g
N=C(N)NCCC[C@H](NC(=O)CON=C[C@H](F)[C@@H](O)[C@H](O)[C@H](O)CO)C(=O)NCC(=O)N[C@@H](CC(=O)O)C(=O)O [fluorine-18 labelled],,"nude mice U-87 MG tumour, stomach","intravenous, 2 h",0.3 ± 0.32 %ID/g
CN1C(=O)[C@@H](Cc2ccc(O)c(I)c2)NC(=O)CNC(=O)[C@H](Cc2ccc3ccccc3c2)NC(=O)[C@H](CCCNC(=N)N)NC(=O)[C@H]1CCCNC(=O)c1ccc(CNC(=O)CN2CCN(CC(=O)O)CCN(CC(=O)O)CCN(CC(=O)O)CC2)cc1 [lutetium-177 labelled],item: 177Lu radioactivity,"female CB-17 SCID mice, Daudi xenograft, tumor","intravenous, 0.16 nmol per mouse, 96 h",2.07 ± 0.12 %ID/g
CCCC[C@@H]1NC(=O)[C@@H](NC(=O)[C@H](CCC(=O)O)NC(=O)CNC(=O)CN2CCN(CC(=O)O)CCN(CC(=O)O)CCN(CC(=O)O)CC2)CCCCNC(=O)C[C@@H](C(N)=O)NC(=O)[C@H](C(C)C)NC(=O)[C@@H]2CCCN2C(=O)[C@H](CCCNC(=N)N)NC(=O)CNC(=O)[C@H](Cc2c[nH]c3ccccc23)NC(=O)[C@H](CCCNC(=N)N)NC(=O)[C@@H](Cc2ccccc2)NC(=O)[C@H](Cc2c[nH]cn2)NC(=O)[C@H](CCC(=O)O)NC1=O [gallium-67 labelled],,"C57 mice with B16/F1 melanoma, stomach","intravenous, 0.037 MBq, 4 h",0.08 ± 0.07 %ID/g
CCCC[C@H](NC(=O)CNC(=O)CNC(=O)CN1CCN(CC(=O)O)CCN(CC(=O)O)CC1)C(=O)N[C@H]1CC(=O)NCCCC[C@@H](C(N)=O)NC(=O)[C@H](Cc2c[nH]c3ccccc23)NC(=O)[C@H](CCCNC(=N)N)NC(=O)[C@@H](Cc2ccccc2)NC(=O)[C@H](Cc2c[nH]cn2)NC1=O [gallium-67 labelled],,"female C57 mice, B16/F1 melanoma, skin","intravenous, 0.037 MBq, 0.5 h",4 ± 0.32 %ID/g
O=C([O-])CN1CCN(CC(=O)[O-])CCN(CC(=O)[O-])CCN(CC(=O)[O-])CC1.[64Cu+2],,"healthy athymic nude mice, spleen","intravenous, 15 min",0.9 %ID/g
CCCC[C@H](NC(=O)CN1CCC(NC(=O)CN2CCN(CC(=O)O)CCN(CC(=O)O)CCN(CC(=O)O)CC2)CC1)C(=O)N[C@H]1CC(=O)NCCCC[C@@H](C(N)=O)NC(=O)[C@H](Cc2c[nH]c3ccccc23)NC(=O)[C@H](CCCNC(=N)N)NC(=O)[C@@H](Cc2ccccc2)NC(=O)[C@H](Cc2c[nH]cn2)NC1=O [gallium-68 labelled],,"male C57BL/6J mice, B16-F10 tumours, stomach","intravenous, 1 h, blocking study, together with: 100 µg non-radioactive Ga-peptide",1.1 ± 0.6 %ID/g

# A few entries again:
SMILES,assay,system,conditions,tissue uptake
N=C(N)NCCC[C@H](NC(=O)CON=C[C@H](F)[C@@H](O)[C@H](O)[C@H](O)CO)C(=O)NCC(=O)N[C@@H](CC(=O)O)C(=O)O [fluorine-18 labelled],,"nude mice U-87 MG tumour, stomach","intravenous, 2 h",0.3 ± 0.32 %ID/g
